Measured values gathered from unrelated publications.
Each line is one published result; not all experiments were run side by side. Values joined by “and” are separate records of one study, mostly repeats; a detail may differ. Numbers after ± are the reported error.
B1: xoxF1 (Methylorubrum extorquens, UniProt C5B120); chain NESVLKGVANPAEQVLQTVDYANTRYSKLDQINASNVKNLQVAWTFSTGVLRGHEGSPLVVGNIMYVHTPFPNIVYALDLDQGAKIVWKYEPKQDPSVIPVMCCDTVNRGLAYADGAILLHQADTTLVSLDAKSGKVNWSVKNGDPSKGETNTATVLPVKDKVIVGISGGEFGVQCHVTAYDLKSGKKVWRGYSIGPDDQLIVDPEKTTSLGKPIGKDSSLKTWEGDQWKTGGGCTWGWFSYDPKLDLMYYGSGNPSTWNPKQRPGDNKWSMTIWARNPDTGMAKWVYQMTPHDEWDFDGINEMILTDQKFDGKDRPLLTHFDRNGFGYTLDRATGEVLVAEKFDPVVNWATKVDLDKGSKTYGRPLVVSKYSTEQNGEDVNSKGICPAALGTKDQQPAAFSPKTGLFYVPTNHVCMDYEPFRVTYTPGQPYVGATLSMYPAPGSHGGMGNFIAWDNLQGKIKWSNPEQFSAWGGALATAGDVVFYGTLEGFLKAVDSKTGKELYKFKTPSGIIGNVMTYEHKGKQHVAVLSGVGGWAGIGLAAGLTDPNAGLGAVGGYAALSSYTNLGGQLTVFSLPNN
B2: UGT1A9 (Homo sapiens, UniProt O60656); chain GKLLVVPMDGSHWFTMRSVVEKLILRGHEVVVVMPEVSWQLGRSLNCTVKTYSTSYTLEDLDREFKAFAHAQWKAQVRSIYSLLMGSYNDIFDLFFSNCRSLFKDKKLVEYLKESSFDAVFLDPFDNCGLIVAKYFSLPSVVFARGILCHYLEEGAQCPAPLSYVPRILLGFSDAMTFKERVRNHIMHLEEHLLCHRFFKNALEIASEILQTPVTEYDLYSHTSIWLLRTDFVLDYPKPVMPNMIFIGGINCHQGKPLPMEFEAYINASGEHGIVVFSLGSMVSEIPEKKAMAIADALGKIPQTVLWRYTGTRPSNLANNTILVKWLPQNDLLGHPMTRAFITHAGSHGVYESICNGVPMVMMPLFGDQMDNAKRMETKGAGVTLNVLEMTSEDLENALKAVINDKSYKENIMRLSSLHKDRPVEPLDLAVFWVEFVMRHKGAPHLRPAAHDLTWYQYHSLDVIGFLLAVVLTVAFITFKCCAYGYRKCLGKKGRVKKAHKSKTH
Sequence of UniProt Q6XEC0 (whole entry, looked up): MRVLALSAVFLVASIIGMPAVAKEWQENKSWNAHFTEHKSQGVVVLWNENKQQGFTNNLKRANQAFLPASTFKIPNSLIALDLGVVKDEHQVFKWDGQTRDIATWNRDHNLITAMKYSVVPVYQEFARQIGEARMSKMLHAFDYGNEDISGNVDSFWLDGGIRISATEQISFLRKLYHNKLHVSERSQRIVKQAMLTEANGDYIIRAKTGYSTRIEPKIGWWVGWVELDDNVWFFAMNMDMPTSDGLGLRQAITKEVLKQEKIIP
Sequence of UniProt Q12884 (whole entry, looked up): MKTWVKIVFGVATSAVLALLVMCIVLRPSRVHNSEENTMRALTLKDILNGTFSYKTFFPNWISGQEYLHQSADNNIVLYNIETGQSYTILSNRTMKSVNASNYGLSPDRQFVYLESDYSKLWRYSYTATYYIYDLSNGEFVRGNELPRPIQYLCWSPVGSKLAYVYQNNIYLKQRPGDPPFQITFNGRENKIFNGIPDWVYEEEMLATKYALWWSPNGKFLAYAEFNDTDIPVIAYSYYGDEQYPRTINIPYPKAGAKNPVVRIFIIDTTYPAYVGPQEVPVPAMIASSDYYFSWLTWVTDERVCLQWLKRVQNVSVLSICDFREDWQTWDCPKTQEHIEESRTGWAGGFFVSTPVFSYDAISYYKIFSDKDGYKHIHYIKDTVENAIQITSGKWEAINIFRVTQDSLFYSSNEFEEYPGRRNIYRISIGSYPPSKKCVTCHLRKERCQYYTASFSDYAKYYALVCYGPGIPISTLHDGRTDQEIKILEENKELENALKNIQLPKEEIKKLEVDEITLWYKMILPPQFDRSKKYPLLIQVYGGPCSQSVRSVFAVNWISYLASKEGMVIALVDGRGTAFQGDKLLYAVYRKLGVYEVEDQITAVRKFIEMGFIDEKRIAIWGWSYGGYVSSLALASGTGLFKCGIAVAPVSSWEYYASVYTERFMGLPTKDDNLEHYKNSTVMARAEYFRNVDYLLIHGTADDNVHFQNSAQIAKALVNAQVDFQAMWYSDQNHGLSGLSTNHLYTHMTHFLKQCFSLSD

The tissue uptake of N=C(N)NCCC[C@@H]1NC(=O)[C@H](CCCCNC(=O)[C@H](CC(=O)O)NC(=O)[C@H](CC(=O)O)NC(=O)[C@H](CC(=O)O)NC(=O)CC[C@H](NC(=O)CCOCCOCCOCCOCCNC(=O)c2ccc(NN)nc2)C(=O)N[C@@H](CC(=O)O)C(=O)N[C@@H](CC(=O)O)C(=O)N[C@@H](CC(=O)O)C(=O)NCCCC[C@@H]2NC(=O)[C@@H](Cc3ccccc3)NC(=O)[C@H](CC(=O)O)NC(=O)CNC(=O)[C@H](CCCNC(=N)N)NC2=O)NC(=O)[C@@H](Cc2ccccc2)NC(=O)[C@H](CC(=O)O)NC(=O)CNC1=O [technetium-99m labelled] is reported as 0.18 ± 0.06 %ID/g (U-87 MG xenograft athymic nude mice, muscle; intravenous, 60 min, together with: RGD2 14 mg/kg co-injected).
`OXA-48 (Klebsiella pneumoniae, UniProt Q6XEC0)` has a kcat/Km of 16000 M⁻¹ s⁻¹ (C[C@@H](O)[C@H]1C(=O)N2C(C(=O)O)=C(S[C@@H]3CN[C@H](CNS(N)(=O)=O)C3)[C@H](C)[C@H]12; steady-state kinetics; pH 7.2, 30 °C).
With COc1cccc2c1C(=O)c1c(O)c3c(c(O)c1C2=O)C[C@@](O)(C(=O)CO)C[C@@H]3O[C@H]1C[C@H](NC(=O)[C@@H]2CCCN2C(=O)CNC(=O)[C@H](CC(C)C)NC(=O)[C@H](C)NC(=O)CP(=O)(O)O)[C@H](O)[C@H](C)O1 the Tmax was 5 min (mouse, E0771 tumour-bearing, kidney; intravenous, 92 µmol/kg).
Under “heat capacity change”, `melittin` is recorded as -0.34 kcal/mol/K (membrane partitioning, ITC enthalpy vs temperature; POPC/POPG LUVs 90:10%; concentration not given, 25 to 60 °C).
For CC(=O)N(O)CCCCCNC(=O)CCC(=O)N(O)CCCCCNC(=O)CCC(=O)N(O)CCCCCNC(=S)Nc1ccc(NC(=S)NCCOCCOCCOCCOCCC(=O)N[C@@H](CCC(=O)NCCOCCOCCOCCOCCC(=O)NCCCC[C@@H]2NC(=O)[C@@H](Cc3ccccc3)NC(=O)[C@H](CC(=O)O)NC(=O)CNC(=O)[C@H](CCCNC(=N)N)NC2=O)C(=O)NCCOCCOCCOCCOCCC(=O)NCCCC[C@@H]2NC(=O)[C@@H](Cc3ccccc3)NC(=O)[C@H](CC(=O)O)NC(=O)CNC(=O)[C@H](CCCNC(=N)N)NC2=O)cc1 [zirconium-89 labelled], the tissue uptake was 18.8 ± 2.21 %ID/g (athymic nude mice female tumour-bearing, liver; intravenous, dose not given, 4 h, together with: unlabelled c(RGDfK) 300 µg).
With `B1 (xoxF1)` the kcat/Km was 190000 ± 30000 M⁻¹ s⁻¹ (CO; steady-state kinetics; 30 °C).
Under “hydrolysis to emetine”, CC[C@H]1CN2CCc3cc(OC)c(OC)cc3[C@@H]2C[C@@H]1C[C@@H]1c2cc(OC)c(OC)cc2CCN1C(=O)[C@@H]1CCCN1C(=O)CNC(=O)[C@H](C)NC(=O)[C@@H]1CCCN1C(=O)CNC(=O)[C@H](CO)NC(=O)[C@H](C)NC(C)=O is recorded as 0% (FAP (Homo sapiens, UniProt Q12884); substrate, HPLC-MS; 250 µM, 24 h, pH 7.8, 37 °C, 2.5% DMSO).
COc1cccc2c1C(=O)c1c(O)c3c(c(O)c1C2=O)C[C@@](O)(C(=O)CO)C[C@@H]3O[C@H]1C[C@H](NC(=O)[C@H](CC(C)C)NC(=O)[C@H](C)NC(=O)[C@H](CC(C)C)NC(=O)CCNC(=O)CCC(=O)O)[C@H](O)[C@H](C)O1 gave a Tmax of 5 min (mouse, E0771 tumour-bearing, plasma; intravenous, 92 µmol/kg).
With `B2 (UGT1A9)` the Km was 0.64 µM and 0.61 µM and 0.67 µM (O=c1c(O)c(-c2cc(O)c(O)c(O)c2)oc2cc(O)cc(O)c12; steady-state kinetics; pH 7.4, 37 °C).
For N=C(N)NCCC[C@@H]1NC(=O)[C@H](CCCCNC(=O)CNC(=O)CNC(=O)CNC(=O)CC[C@H](NC(=O)CCOCCOCCOCCOCCNC(=O)c2ccc(NN)nc2)C(=O)NCC(=O)NCC(=O)NCC(=O)NCCCC[C@@H]2NC(=O)[C@@H](Cc3ccccc3)NC(=O)[C@H](CC(=O)O)NC(=O)CNC(=O)[C@H](CCCNC(=N)N)NC2=O)NC(=O)[C@@H](Cc2ccccc2)NC(=O)[C@H](CC(=O)O)NC(=O)CNC1=O [technetium-99m labelled], the tissue uptake was 1.59 ± 0.17 %ID/g (γ-counting; female athymic nude mice, U-87 MG xenograft, eyes; intravenous, 1 h).

Excerpt of the above:
With COc1cccc2c1C(=O)c1c(O)c3c(c(O)c1C2=O)C[C@@](O)(C(=O)CO)C[C@@H]3O[C@H]1C[C@H](NC(=O)[C@@H]2CCCN2C(=O)CNC(=O)[C@H](CC(C)C)NC(=O)[C@H](C)NC(=O)CP(=O)(O)O)[C@H](O)[C@H](C)O1 the Tmax was 5 min (mouse, E0771 tumour-bearing, kidney; intravenous, 92 µmol/kg).
